Experimental data of several laboratories.
A part holds a random share of what one study measured. Changes are numbered by the printed parent chain.

Study 1 — method: RNA Bind-n-Seq; molecule type: RNA; matrix: in vitro; tested at: 1 µM; setting: whole 134-nt RNA, ends assumed; with: 150 mM KCl; reference: input library; reading: higher = stronger binding; endpoint: log2 enrichment
Target: Ras GTPase-activating protein-binding protein 1, RRM domain (G3BP1, Homo sapiens, UniProt Q13283)
UniProt Q13283, sequence (whole entry, looked up): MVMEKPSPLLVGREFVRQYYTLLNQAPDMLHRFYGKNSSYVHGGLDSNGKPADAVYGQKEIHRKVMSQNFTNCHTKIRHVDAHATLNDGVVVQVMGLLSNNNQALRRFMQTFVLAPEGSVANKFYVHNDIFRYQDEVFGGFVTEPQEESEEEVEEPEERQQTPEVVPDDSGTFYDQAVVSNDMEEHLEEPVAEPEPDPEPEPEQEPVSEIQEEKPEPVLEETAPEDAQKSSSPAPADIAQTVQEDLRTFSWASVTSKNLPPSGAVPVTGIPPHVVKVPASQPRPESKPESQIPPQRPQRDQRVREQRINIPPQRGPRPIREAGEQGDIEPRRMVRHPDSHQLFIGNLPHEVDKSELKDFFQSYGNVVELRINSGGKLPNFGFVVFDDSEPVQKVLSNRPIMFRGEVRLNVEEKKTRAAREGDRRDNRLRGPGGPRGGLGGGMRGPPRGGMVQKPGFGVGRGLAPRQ
Shared flanks, not repeated: GGGAGUUCUACAGUCCGACGAUC … UGGAAUUCUCGGGUGUCAAGG
UGUGCUACACAUCGUAUGUACCGAAUCGGGGAAAAAAAGGGGUUUUUGGGGUUUUUUUGGGGAAAGUAUUAUGUUACGCCGUUCGGAUCU: 1.21
CAAGUCCUGUGCUACACAUCGUAUGUACCGAAUCGGGUGGGAGGGAAAAAAAGGGAAAGUAUUAUGUUACGCCGUUCGGAUCUGCACUUC: 0.438
CUCAAGUCCUGUGCUACACAUCGUAUGUACCGAAUCGGGUUUGGGUGGGUGGGAAAGUAUUAUGUUACGCCGUUCGGAUCUGCACUUCCA: 0.677
CUCAAGUCCUGUGCUACACAUCGUAUGUACCGAAUCGGGGCCGGGGCCGGCCGGAAAGUAUUAUGUUACGCCGUUCGGAUCUGCACUUCC: -0.816
UGGGAGGUGGAUUUUGUUUAUUUUUUUGGCUCAUUUCCAGGGGUGGGAAUUUUUUUUUAAUAUGUGUCAUGAAUAAAGUUGUUUUUGAAA: 2.1
CAAGUCCUGUGCUACACAUCGUAUGUACCGAAUCGGCCCCGGGGCCCCGGCCCCGGAAAGUAUUAUGUUACGCCGUUCGGAUCUGCACUU: -0.599
UCCUGUGCUACACAUCGUAUGUACCGAAUCGGCCCCCCGGCCCCCCGGGGCCCCCCGGGGAAAGUAUUAUGUUACGCCGUUCGGAUCUGC: -0.462
GUCCUGUGCUACACAUCGUAUGUACCGAAUCGGAAAAAAAGGUUUUUGGAAAAAAAGGAAAGUAUUAUGUUACGCCGUUCGGAUCUGCAC: -0.198
AAGUCCUGUGCUACACAUCGUAUGUACCGAAUCGGGGAAAAAGGGGUGGGGAGGGGAAAGUAUUAUGUUACGCCGUUCGGAUCUGCACUU: 0.678
AAGUCCUGUGCUACACAUCGUAUGUACCGAAUCGGGGCCCCGGCCCCGGGGCCCCGGAAAGUAUUAUGUUACGCCGUUCGGAUCUGCACU: -1.36
UCCUGUGCUACACAUCGUAUGUACCGAAUCGGCCCCCCGGGCCCCCCGGGGCCCCCCGGAAAGUAUUAUGUUACGCCGUUCGGAUCUGCA: -0.391
GCAGGAAGUAAAAACAAAUGGAAAUGCUUCGGAUAGUGGCAGGGGUGGGGGUUGCUAAGGAAAGGGUGGGAUGGGAGUGGGUAAAGACUU: 0.731
AGUCCUGUGCUACACAUCGUAUGUACCGAAUCGGGGUUUGGGGAGGGGUUUUUGGGGAAAGUAUUAUGUUACGCCGUUCGGAUCUGCACU: 0.923
CCUGUGCUACACAUCGUAUGUACCGAAUCGGGGUUUUUUUGGGGUUUGGGGAAAAAGGGGAAAGUAUUAUGUUACGCCGUUCGGAUCUGC: 0.317

Study 2 — method: protein-binding microarray; molecule type: double-stranded DNA, one strand shown; matrix: in vitro; tested at: 2200 nM top; setting: 60-bp whole probe; with: salmon DNA 0.4 mg/ml; reference: random background probes; reading: higher = stronger binding; endpoint: fitted relative affinity; shared flanks, not repeated: GCCTAGCAC … GTCTTGATTCGCTTGACGCTGCTG
Target: Interferon regulatory factor 7, full length, phosphomimetic (IRF7, Homo sapiens, UniProt Q92985, residues 1-503, S471D/S472D/S475D/S476D/S477D/S483D/S484D/S487D)
Target sequence (chain): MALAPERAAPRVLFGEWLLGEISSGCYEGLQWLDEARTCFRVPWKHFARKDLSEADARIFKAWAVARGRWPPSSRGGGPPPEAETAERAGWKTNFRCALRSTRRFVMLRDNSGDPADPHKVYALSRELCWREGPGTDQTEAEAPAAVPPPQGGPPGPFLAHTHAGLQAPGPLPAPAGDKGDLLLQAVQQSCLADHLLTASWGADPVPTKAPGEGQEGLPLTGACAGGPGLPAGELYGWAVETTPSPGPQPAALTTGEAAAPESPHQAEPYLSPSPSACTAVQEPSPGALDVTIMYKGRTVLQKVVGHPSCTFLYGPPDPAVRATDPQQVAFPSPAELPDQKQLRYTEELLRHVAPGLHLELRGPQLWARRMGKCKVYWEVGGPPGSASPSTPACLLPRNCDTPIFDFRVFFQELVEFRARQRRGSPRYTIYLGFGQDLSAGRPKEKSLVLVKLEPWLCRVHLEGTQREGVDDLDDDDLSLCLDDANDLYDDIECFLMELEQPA
GACGGTTTCCTTCTCCTGAGGTGCTAG: 2.65 z-score
TTAGATCTCAGTGTCGATTAGTGCTAG: 0.0314 z-score
GGAGAGTTCCAGGAGGTCGAGTGCTAG: -0.648 z-score
TTTTTTTTCTGATCCATTTTGTGCTAG: 2.93 z-score
GACGTTCTCAGACTGGAGACGTGCTAG: 0.102 z-score
TTAGGACTGCTTTTCCTTTCGTGCTAG: 2.42 z-score
GACGATCTCAGTATAGAGACGTGCTAG: -0.053 z-score
GACGATCTCAGTCCCGAGACGTGCTAG: 0.529 z-score
GACGGACTGGACATTGGGGACGTGCTA: -0.824 z-score
TTAGGTTTCGGTAACGGTTAGTGCTAG: 2.92 z-score
TTAGTTTTCCTTTTCCTTTAGTGCTAG: 9.36 z-score
TCAAATGCCCTTTTGGTACTGTGCTAG: 0.642 z-score
TCATTTTTTTTTTCTACACTGTGCTAG: 2.61 z-score
TTAGGAATCGGGACTGGGTTAGTGCTA: -0.705 z-score
TTAGGTAGCCTTTTCCTTTAGTGCTAG: 0.551 z-score
CTAGATTTCGGGTATCGATTAGTGCTA: 3.17 z-score
TCAGGTATTTTTCTAAAACTGTGCTAG: 0.081 z-score
CTACACATCTCACTCTAATCGTGCTAG: 1.72 z-score
TCAGATGTGGGACTCACACTGTGCTAG: 0.125 z-score
TTAGATTCCAGTTTCGATGAGTGCTAG: 3.01 z-score
TGAGGACTGGGGACTGGGTTAGTGCTA: -1.02 z-score
GACGGCATCCTTCTCCTGACGTGCTAG: 0.361 z-score

Study 3 — method: protein-binding microarray; molecule type: hairpin DNA; matrix: in vitro; tested at: not given; reference: not given; reading: higher = stronger binding; endpoint: median fluorescence
Target: Runt-related transcription factor 3, Runt domain (RUNX3, Homo sapiens, UniProt Q13761, residues 53-186)
UniProt Q13761, sequence (53-186, looked up): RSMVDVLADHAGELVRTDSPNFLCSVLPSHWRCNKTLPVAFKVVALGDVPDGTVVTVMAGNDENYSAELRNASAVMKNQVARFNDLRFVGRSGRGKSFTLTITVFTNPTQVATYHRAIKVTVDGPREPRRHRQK
Setting: whole hairpin DNA, median over replicate spots
GAGGCCGGTCGCGGTTGGCCTCCTGGCCAACCGCGACCGGCCTCACACTC (5mC at 38): 5860 a.u.
GAGGCCTGCGGCGGTTGGCCTCCTGGCCAACCGCCGCAGGCCTCACACTC (5mC at 35): 5920 a.u.
GAGGCCAGTTGTGGTTGGCCTCCTGGCCAACCACAACTGGCCTCACACTC: 5590 a.u.
GAGGCCTGTCGCGGTTGGCCTCCTGGCCAACCGCGACAGGCCTCACACTC (5mC at 28): 6190 a.u.
GAGGCCTGTCGCGGTTGGCCTCCTGGCCAACCGCGACAGGCCTCACACTC (5mC at 32): 5610 a.u.
GAGGCCCAACCGCAACAGCCTCCTGGCTGTTGCGGTTGGGCCTCACACTC: 9040 a.u.
GAGGCCTGTCGCCGTTGGCCTCCTGGCCAACGGCGACAGGCCTCACACTC (5mC at 31): 5080 a.u.
GAGGCCCAGCCGCAACAGCCTCCTGGCTGTTGCGGCTGGGCCTCACACTC: 6060 a.u.
GAGGCCTGTCGCGGTTGGCCTCCTGGCCAACCGCGACAGGCCTCACACTC (5mC at 10 12): 5950 a.u.
GAGGCCTGTCCGGGTTGGCCTCCTGGCCAACCCGGACAGGCCTCACACTC (5mC at 11 33): 5080 a.u.
CTCAGTCGTGTGGGCTGGACTCCTGTCCAGCCCACACGACTGAGACACTC (5mC at 7): 4350 a.u.
CTCAGTTCTGTGGACTGGACTCCTGTCCAGTCCACAGAACTGAGACACTC: 3830 a.u.

Study 4 — method: DHFR PCA, deep sequencing; matrix: yeast; with: (+)-ABA 0.0091 µM; reference: wild-type fitted maximum; reading: higher = stronger binding; endpoint: relative binding score
Target: ABI1, truncated, D143A, DHFR fusion (Arabidopsis thaliana)
Setting: methotrexate growth selection, single substitutions
Parent: PYL1, truncated, DHFR fusion (Arabidopsis thaliana); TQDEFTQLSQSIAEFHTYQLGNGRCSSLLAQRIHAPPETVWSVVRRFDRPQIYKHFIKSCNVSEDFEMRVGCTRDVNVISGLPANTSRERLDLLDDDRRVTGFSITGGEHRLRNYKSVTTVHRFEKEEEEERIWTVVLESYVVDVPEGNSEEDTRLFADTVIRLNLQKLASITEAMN; partner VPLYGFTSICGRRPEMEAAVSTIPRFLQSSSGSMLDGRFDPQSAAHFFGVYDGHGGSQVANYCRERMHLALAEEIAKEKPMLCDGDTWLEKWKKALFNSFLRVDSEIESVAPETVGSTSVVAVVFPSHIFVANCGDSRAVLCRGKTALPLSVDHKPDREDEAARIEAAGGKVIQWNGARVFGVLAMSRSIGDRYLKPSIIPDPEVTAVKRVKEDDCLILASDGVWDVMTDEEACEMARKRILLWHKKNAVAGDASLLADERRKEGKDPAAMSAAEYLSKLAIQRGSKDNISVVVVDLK
T119M: 0.47%
Y141M: -3.79%
T173Q: -1.92%
F66D: -0.591%
F157W: 29.3%
T160S: 5.39%
R49V: 3.25%
A35R: -2.3%
D95A: -6.58%
V76A: -2.3%
V43A: 2.64%
H55D: -7.46%

Study 5 — target: CCND2, cyclin fold, Cln2 fusion (human); method: yeast growth competition, sequencing; matrix: yeast; setting: weak parent motif; reference: not given; reading: higher = stronger binding; endpoint: normalised enrichment score
Parent: CDKN1B docking peptide (human); PSACRNLFGPVDH; partner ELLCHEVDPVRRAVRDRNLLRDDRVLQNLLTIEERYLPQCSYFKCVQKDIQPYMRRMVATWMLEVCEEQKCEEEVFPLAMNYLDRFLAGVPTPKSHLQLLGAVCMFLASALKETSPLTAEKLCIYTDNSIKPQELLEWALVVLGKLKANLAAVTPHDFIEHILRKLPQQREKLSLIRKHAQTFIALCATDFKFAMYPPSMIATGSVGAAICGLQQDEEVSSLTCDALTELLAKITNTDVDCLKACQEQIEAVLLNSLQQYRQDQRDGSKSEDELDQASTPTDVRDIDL
PSACRNLFGEVDH [P10E]: 0.196
PSACRFLFGPVDH [N6F]: -0.0889
PSACRNLFSPVDH [G9S]: 0.103
PSTCRNLFGPVDH [A3T]: 0.13
PSACRNLFGFVDH [P10F]: 0.145
PSACRNLFGPVDV [H13V]: -0.0593
PQACRNLFGPVDH [S2Q]: -0.121
KSACRNLFGPVDH [P1K]: 0.413
PSACRNLFEPVDH [G9E]: 0.245
PSACRTLFGPVDH [N6T]: 0.0159
PSACRNLLGPVDH [F8L]: 0.1
PSACRNLFGPVDM [H13M]: 0.0494
PSACRYLFGPVDH [N6Y]: -0.249
PEACRNLFGPVDH [S2E]: 0.174
PRACRNLFGPVDH [S2R]: 0.188
PSACRNLFGDVDH [P10D]: 0.314
PSCCRNLFGPVDH [A3C]: -0.0175
PSACVNLFGPVDH [R5V]: -0.0464
PSACRNLFGPVWH [D12W]: 0.246
PSSCRNLFGPVDH [A3S]: 0.264
PSACRNLVGPVDH [F8V]: -0.412
PSACRNLFFPVDH [G9F]: 0.147
PSACKNLLGPVDH [R5K F8L]: 0.122
PSACRNLFGPYDH [V11Y]: 0.135
LSACRNLFGPVDH [P1L]: 0.302

For quick reference, copied from above (study 5):
PSACRNLFGEVDH [P10E]: 0.196
PSACRFLFGPVDH [N6F]: -0.0889
PSACRNLFSPVDH [G9S]: 0.103
PSTCRNLFGPVDH [A3T]: 0.13
PSACRNLFGFVDH [P10F]: 0.145
PSACRNLFGPVDV [H13V]: -0.0593
PQACRNLFGPVDH [S2Q]: -0.121
KSACRNLFGPVDH [P1K]: 0.413
